Results collected from several papers.
Protocols differ between the studies behind these lines. Values joined by “and” are separate records of one study, mostly repeats; a detail may differ. ± marks the error that the study gave.
Cell line: HEK293

CN1C(=O)c2sccc2N(C)c2nc(Nc3ccc(S(N)(=O)=O)cc3)ncc21 — phosphorylated MOB1 level (Western blot, item: MOB1 phospho-Thr35; 10 µM, 4 h, together with: H2O2 50 µM for 2 h; relative to: DMSO): decreased
COc1cc2c(OCCCC#N)c3c(c(-c4ccc5c(c4)OCO5)c2cc1OC)C(=O)OC3 — IC50 (endosomal acidification; 4 h): 98.7 ± 29.5 nM
Cc1cc(NCCc2ccccc2)nc(N=C(N)Nc2ccc(Cl)cc2)n1 — selectivity index (MTT; relative to: CC50 over IC50): 106
COc1cc2c(OCCCN3CCOCC3)c3c(c(-c4ccc5c(c4)OCO5)c2cc1OC)C(=O)OC3 — IC50 (endosomal acidification): 74.3 ± 23.9 nM
NC(=O)c1cccc(-c2c[nH]c3ncnc(N4CCOCC4)c23)c1 — YAP/TAZ-TEAD reporter activity (reporter gene, 8xGTIIC luciferase; 10 µM, 48 h; relative to: DMSO): increased
CN1CCC(NCc2cccc(-c3ccc(S(=O)(=O)NCc4ccccc4)cc3)c2)CC1 — selectivity index (MTT; relative to: CC50 over IC50): 54.5
COc1cc2c(O)c3c(c(-c4ccc5c(c4)OCO5)c2cc1OC)C(=O)OC3 — cytosolic pH (BCECF-AM; concentration not given, 4 h; relative to: vehicle): no effect
C/C=C(/C)C(=O)O[C@H]1C(C)=C2[C@H]([C@@H]1OC(=O)CCCCCCC)[C@@](C)(OC(C)=O)C[C@H](OC(=O)CCC)[C@@]1(O)[C@H]2OC(=O)[C@@]1(C)O — phospho-eIF2α level (western blot; 3 µM, 6 h, unit not given; relative to: total eIF2α): 0.719 and 0.604 and 0.55
NCCN(C(=O)c1ccc(Cl)cc1Cl)c1ccc(OCc2ccc(Cl)cc2)cc1 — selectivity index (MTT; relative to: CC50 over IC50): 2.83
Clc1cccc(-c2c[nH]c3nccc(N4CCOCC4)c23)c1 — phosphorylated MOB1 level (Western blot, item: MOB1 phospho-Thr35; 10 µM, 4 h, together with: H2O2 50 µM for 2 h; relative to: DMSO): decreased

Excerpt of the above:
NCCN(C(=O)c1ccc(Cl)cc1Cl)c1ccc(OCc2ccc(Cl)cc2)cc1 — selectivity index (MTT; relative to: CC50 over IC50): 2.83
